Measurements from different studies.
Each numbered part is a random draw from the data of one study; scales do not carry over between parts.
Chain of UniProt P47898 (whole entry, looked up): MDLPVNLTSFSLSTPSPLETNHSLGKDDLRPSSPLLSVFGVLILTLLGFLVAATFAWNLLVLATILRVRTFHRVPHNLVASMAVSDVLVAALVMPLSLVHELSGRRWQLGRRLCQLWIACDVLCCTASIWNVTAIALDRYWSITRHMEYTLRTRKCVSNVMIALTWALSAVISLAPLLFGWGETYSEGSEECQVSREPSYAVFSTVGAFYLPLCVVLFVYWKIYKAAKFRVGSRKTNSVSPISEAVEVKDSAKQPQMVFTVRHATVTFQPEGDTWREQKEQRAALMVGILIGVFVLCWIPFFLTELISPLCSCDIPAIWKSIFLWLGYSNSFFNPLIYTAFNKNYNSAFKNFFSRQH
Chain of UniProt P41595 (whole entry, looked up): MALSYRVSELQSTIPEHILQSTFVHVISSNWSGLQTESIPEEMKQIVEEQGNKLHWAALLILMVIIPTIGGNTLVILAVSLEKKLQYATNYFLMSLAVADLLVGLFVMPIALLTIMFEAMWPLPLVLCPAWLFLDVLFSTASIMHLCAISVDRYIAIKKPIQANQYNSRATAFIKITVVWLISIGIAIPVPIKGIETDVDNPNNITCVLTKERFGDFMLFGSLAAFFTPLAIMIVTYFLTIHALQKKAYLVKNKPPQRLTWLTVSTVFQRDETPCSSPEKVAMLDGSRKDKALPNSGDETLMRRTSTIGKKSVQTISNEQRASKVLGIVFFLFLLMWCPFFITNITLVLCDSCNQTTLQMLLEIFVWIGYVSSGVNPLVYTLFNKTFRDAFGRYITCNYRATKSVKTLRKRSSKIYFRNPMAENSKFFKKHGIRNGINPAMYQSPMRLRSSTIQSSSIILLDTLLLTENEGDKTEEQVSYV

Study 1
Cell line: HaCaT
Tested at: 100 µM
Time: 36 h
Measurement: viability
CC(C)Oc1ccc2c(=O)c(-c3ccccc3)coc2c1: 77.4%
O=C(Nc1c(Cl)cncc1Cl)c1ccc(OC(F)F)c(OCC2CC2)c1: 70.2%
NCC[C@H](O)C(=O)N[C@@H]1C[C@H](N)[C@@H](O[C@H]2O[C@H](CN)[C@@H](O)[C@H](O)[C@H]2O)[C@H](O)[C@H]1O[C@H]1O[C@H](CO)[C@@H](O)[C@H](N)[C@H]1O: 98.1%
CC(C(O)c1ccc(O)cc1)N1CCC(Cc2ccccc2)CC1 (centres unmarked): 16.7%
C#C[C@]1(O)CC[C@H]2[C@@H]3CCC4=CC(=O)CC[C@@H]4[C@H]3CC[C@@]21C: 99.9%
CC(C)[C@H](N)C(=O)OCC(CO)OCn1cnc2c(=O)nc(N)[nH]c21 (some centres unmarked): 99.9%
O=C(N/N=C/c1ccc([N+](=O)[O-])o1)c1ccc(O)cc1: 8.45%

Study 2
Organism: Sarcocystis neurona
Read-out: parasite growth
Tested at: 10 µM
Setting: secondary screen
Measurement: inhibition
C/C=C1\[C@H]2C=C(C)C[C@]1(N)c1ccc(=O)[nH]c1C2: -33.2%
CN1CCc2cc(Cl)c(O)cc2[C@@H](c2ccccc2)C1.Cl: -56.1%
CN(C)C(=O)C(CCN1CCC(O)(c2ccc(Cl)cc2)CC1)(c1ccccc1)c1ccccc1: 27.5%
CCCN1CCCC[C@H]1C(=O)Nc1c(C)cccc1C: -49.5%
CCCCC[C@H](O)/C=C/[C@H]1[C@H](O)CC(=O)[C@@H]1CCCCCCC(=O)O: -50.8%
O=c1[nH]c(=O)n([C@H]2C[C@H](O)[C@@H](CO)O2)cc1F: 17%
O=C(O[C@H]1[C@H](Oc2ccccc2COC(=O)C2(O)C=CCCC2=O)O[C@H](CO)[C@@H](O)[C@@H]1O)c1ccccc1 (some centres unmarked): -41.7%

Further values, each from its own experiment
CN1CCN(C(=O)C(C)(C)c2ccc(C(=O)Nc3cn4cc(-c5ccncc5)ccc4n3)cc2)CC1
inhibition (5-hydroxytryptamine receptor 2B (HTR2B, Homo sapiens, UniProt P41595); binding, radioligand binding; 10 µM): -7.63%

CC(C)n1cnc(-c2ccc(F)cc2)c1-c1ncc(C(=O)Nc2ccc(N3CCN(C)CC3)cc2)[nH]1
bile acids increased (IPF patients; 30 mg once daily, adverse event incidence): 0%

O=C1CCc2cc(Nc3cc(OC4CCOCC4)c([N+](=O)[O-])cc3Cl)ccc2N1
inhibition (5-hydroxytryptamine receptor 5A (HTR5A, Homo sapiens, UniProt P47898); binding, radioligand binding; 10 µM): 6.14%

A few entries again (further values, each from its own experiment):
CC(C)n1cnc(-c2ccc(F)cc2)c1-c1ncc(C(=O)Nc2ccc(N3CCN(C)CC3)cc2)[nH]1
bile acids increased (IPF patients; 30 mg once daily, adverse event incidence): 0%

O=C1CCc2cc(Nc3cc(OC4CCOCC4)c([N+](=O)[O-])cc3Cl)ccc2N1
inhibition (5-hydroxytryptamine receptor 5A (HTR5A, Homo sapiens, UniProt P47898); binding, radioligand binding; 10 µM): 6.14%
